# Measurements gathered from unrelated publications.
# Numbered parts are unrelated; each lists some results of a single study.

# Block 1 — method: RNA Bind-n-Seq; molecule type: RNA; medium: in vitro; tested at: 200 nM; setting: whole 134-nt RNA, ends assumed; with: 150 mM LiCl; reference: input library; direction: higher = stronger binding; library: 7-deaza-guanosine replaces G
# Target: Ras GTPase-activating protein-binding protein 1, full length (G3BP1, Homo sapiens, UniProt Q13283)
# Chain of UniProt Q13283 (whole entry, looked up): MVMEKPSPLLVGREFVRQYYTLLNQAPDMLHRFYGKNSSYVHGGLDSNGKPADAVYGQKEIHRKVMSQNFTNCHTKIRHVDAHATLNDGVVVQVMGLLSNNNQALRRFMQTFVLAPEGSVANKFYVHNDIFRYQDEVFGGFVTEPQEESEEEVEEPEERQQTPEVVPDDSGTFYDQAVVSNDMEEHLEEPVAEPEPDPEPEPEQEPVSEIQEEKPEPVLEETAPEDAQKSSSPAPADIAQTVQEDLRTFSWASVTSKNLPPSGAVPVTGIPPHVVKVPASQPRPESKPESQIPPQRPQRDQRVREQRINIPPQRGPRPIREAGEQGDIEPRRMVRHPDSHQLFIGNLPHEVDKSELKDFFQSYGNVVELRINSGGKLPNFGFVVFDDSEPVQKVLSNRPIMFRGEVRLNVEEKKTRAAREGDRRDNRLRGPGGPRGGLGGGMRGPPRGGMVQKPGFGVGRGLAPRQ
# All sequences stand within: GGGAGUUCUACAGUCCGACGAUC … UGGAAUUCUCGGGUGUCAAGG
Oligonucleotide,log2 enrichment
UCCUCAAGUCCUGUGCUACACAUCGUAUGUACCGAAUCGGCGGCGGGGCGGAAAGUAUUAUGUUACGCCGUUCGGAUCUGCACUUCCAGC,0.766
CACAGACAACACGCACCCACACAGACACAGAGGGAAGGGGUUGGGAUGGGGGCAGGGUGCACAGCAGGGCGGGGUAGGACCCCAGCCCCU,-0.255
CUCAAGUCCUGUGCUACACAUCGUAUGUACCGAAUCGGGCCGGGGCCGGCCGGGAAAGUAUUAUGUUACGCCGUUCGGAUCUGCACUUCC,0.388
ACCAUGCAGGUGGGCAUCUUUGGGAAGUGGGGCAAGGGGGGGAUAGGGAGGGGGGUAACACUUUGGGAACAGGUGCUCCCAGGUCGUUUC,0.0449
UUUCCAGCAGUACCAGCUCCAGCCAGGAUCACCCUCUCUACUCUGGGCACCCAUCCCUUCCACUAAGUGGUGCUAUUGCUGCUUUUGCCU,1.1
CCUGUGCUACACAUCGUAUGUACCGAAUCGGGAAAAAGGGAAAAAAAGGGUUUUUUUGGGAAAGUAUUAUGUUACGCCGUUCGGAUCUGC,-0.633
CAAGUCCUGUGCUACACAUCGUAUGUACCGAAUCGGUUUUUGGUUUUUGGUUUGGAAAGUAUUAUGUUACGCCGUUCGGAUCUGCACUUC,-1.4
CUCAAGUCCUGUGCUACACAUCGUAUGUACCGAAUCGGGGCCGGGCCGGCCGGAAAGUAUUAUGUUACGCCGUUCGGAUCUGCACUUCCA,0.876
UCCUGUGCUACACAUCGUAUGUACCGAAUCGGGGUUUGGGGAAAGGGGAAAAAAAGGGGAAAGUAUUAUGUUACGCCGUUCGGAUCUGCA,-0.0829
UAACUUUAGAGGAGGAUCUGAUGGAUAUGGCAGUGGACAUGGAUUUGGGGAUGGCUAUAAUGGGUAUGGAGGAGGACCUGGAGGUGGCAA,0.0393
CUGUGCUACACAUCGUAUGUACCGAAUCGGGUUUUUUUGGUUUUUUUGGGGUUUUUUUGGGAAAGUAUUAUGUUACGCCGUUCGGAUCUG,1.02

# Block 2 — method: EMSA with sequencing; molecule type: double-stranded DNA, one strand shown; medium: in vitro; tested at: 10 and 20 nM; reference: negative control set to 0; direction: higher = stronger binding
# Target: Hepatocyte nuclear factor 3-alpha (Foxa1, Mus musculus, UniProt P35582, residues 1-468, full length assumed)
# Chain of UniProt P35582 (whole entry, looked up): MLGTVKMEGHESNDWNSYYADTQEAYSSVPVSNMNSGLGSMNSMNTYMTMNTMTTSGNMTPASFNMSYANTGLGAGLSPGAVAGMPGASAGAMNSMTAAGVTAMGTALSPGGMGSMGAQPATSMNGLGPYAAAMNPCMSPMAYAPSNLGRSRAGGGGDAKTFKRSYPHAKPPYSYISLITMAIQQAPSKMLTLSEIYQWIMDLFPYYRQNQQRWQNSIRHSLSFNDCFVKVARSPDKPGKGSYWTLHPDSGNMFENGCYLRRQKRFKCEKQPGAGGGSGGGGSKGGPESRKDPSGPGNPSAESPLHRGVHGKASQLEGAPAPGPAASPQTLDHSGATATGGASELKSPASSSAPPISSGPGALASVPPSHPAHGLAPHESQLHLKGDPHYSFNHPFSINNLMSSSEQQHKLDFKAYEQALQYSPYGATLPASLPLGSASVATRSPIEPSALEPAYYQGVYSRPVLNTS
# Setting: whole designed probe, mean of two concentrations, ends assumed
# All sequences stand within: GTGAGCGGTGCCCATTGATGGGGAAC … TTTCACTGGGATCGTGGGGAC
Oligonucleotide,normalised bound fraction [ratio]
ATCTTCCCCCTCTTCCTTGCCCCACCAGCTCACCTACGGGGGTTATTTGCAGATAGGAAAATAAATAAAGCCGGCATTCGTTAACCCTCTTCACGCGCATACTGCTGTTTGCTCTGCATGAATCATGGTCCTTACGCGACGCCAGGCTCCGGGAGAGCAAAGCACCGTGTCAGGCGCATGATCCGGGGTGGCC,0.357
AAAACCAAAAACCAAAGCTTATTCACTCTTAATCTAAGTAAGCAAGTTTGGATAGACCCCCACTAAGTATGAGCATAGTCTTTAATGCTACAATGTAATCTAATATACTTATGTCATATAAACTACTTTATTATTCTGGCAAGTTGGGAACCATTGATATAGGATTTGTGAGACTCAATAATAATAGACTTTT,0.0167
CCGTTAGCCATTTCTACAGTAAATGGTATCTGAAATTTTGTTATTTGAAAGAATTTTCTTGCCAAAACATGGAAATACGCAATATTTTGGCATATTGACTTTGTATACGGGAACTTATTTTTTTAATTTTTTTATTTTTTTTGAGGCAGAGTCTCACTCTGTTGCCCAGGCTGGAGTGCAGTGGCACAGTGT,0.292
TTATTGCTACAGATATTTTACAATTAGTATTTCTATGTAAGCACATAGGCTATTATCAAGGACAATTTATTTAGCACTTATTTTGAAATTATATGTAATCTTGCAAACAAATAAGAACCCAAGAGTATAAACTCTATGACAAAAGTCAGTATGCAAGCATTAAGAACTCTTTCAGAAATGTGTATTTAAAATG,0.178
GCGTCCCCGCCCAGGGCAAAGCCAGGACAAGGCCTTATATATAGGCCAGGAGAGGGGAGGGCGGTGGCTCTCTGCTGGGCCGCCAGACGGAAGGTAAACAGCGCCGGGGACTGGTAGCTCCTGTCTCCAGGCAGGAATGCACAGGCCGCGCCTGAGGCAGGTGCGTCCCCAGGGAGGGTTCTGCCCTCTGAAG,0.132
TTTCCAGCCCTTAGTTTCTGGCATTTAACCTGACTCTGGTCCCTGAATGGCATGGGAGTGCTTTCAACCACAGGTTTCCACATTCATGCAAAAGCAAACAAGTGTGATCTACCTGACTCATTCAGAGATCTTTATTTGCTTTGTGTTTCCAATGGAGAAAGAGCTTGGGAAGGGAGGATCCTAATTGTCTAAA,0.458

# Block 3 — method: RNA Bind-n-Seq; molecule type: RNA; medium: in vitro; tested at: 365 nM; reference: no-protein control; direction: higher = stronger binding
# Target: RNA binding protein fox-1 homolog 2, RRM domain, GST-SBP tag (RBFOX2, Homo sapiens, UniProt O43251-10, residues 100-194)
# Setting: natural RNA segment, single round, ends assumed
# All sequences stand within: GGGAGUUCUACAGUCCGACGAUC … UGGAAUUCUCGGGUGCCAA
# Residues (chain): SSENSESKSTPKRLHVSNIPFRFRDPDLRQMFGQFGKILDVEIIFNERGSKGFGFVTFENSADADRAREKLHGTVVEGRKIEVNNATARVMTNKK
Oligonucleotide,RBNS enrichment (R)
CCCCAGUAAACACUAAGAUGGACCUCAAGCCGACUGGUUCCUUGUACUUGAAGUACUUGCCUUUUUUGUUUCCUCAGUUUUAUGUUCUUGCAUUAUAAUUUUAUCCUAAC,1.29
GGGGCCCUGACUCGUCACACUUCCCUUUCCUAAGCCUCUGAGGGUGGAGAUUCCCCUAGGAGCGCUUGGCCAGCUGGGAAGGCAGCGCCCAGCUGCACUUGUUGUUGAUA,0.4
CCAACUCAGCAUCUGCUUCCAGAAGUUUCCCACUUGCAGAUGUUCAGUGCAGUUACAGACAUGCGUUUGAUUCCACAGUUUUGUUUCAUUUCAAAAGAAUUCCCCUCACA,0.396
GUGUCAGUAUGCAGGACUGCUAUGUACUCGGCAACCAUCCACUGUAGUCACAGCUUCUACUUGCAUAGCCCUCAGCUCCUCGAUGCAGGAAGGGGGCACUGCAUUGCUCU,0.79
CACCCGUCCCCUUCACGCCCUUGACACUAAGGAGUGGGGGGCCCUGGACUGCCCCUUCCUCCCCCAUCGCCCGCCCCCAGAACCCCUGAUGCUGGUUAGGAACCGCUCAC,0.478
UUAGGGAAGGAGAAUGUUUGUCCUGUCUCCCUACACUUCCCUGAGGGCUUCUUCCUACCAAAGUGUCCCCUCACCAGUCUGCCUAGAGCAUCACUGGAACCCGCACUAAA,1.16
UCGUCCUUUGUUUGCCUUUGUGGAAAGACAGAAGGCUGGCCUCCACUCUCAGCUUGCAGGUCUUCGUGAGUCACUGAGAGGAUUCCAGGCAGCUAUCUCGAGAGCCACUG,4.05
UAAACCCUAAUGUUAGAUGUCAGUAUAAAGCCCUUAGAAUUUUUCCUCAAGGACCCCUUCUUCCUUUAGGCCUUUCUGUCUUGAUCUGUGCAUUAAGAAAUUUAAGUUUG,0.418
ACUGGCCAUCAGAGAAAUGCAAAUCAAAACCACUAUGAGAUAUCAUCUCACACCAGUUAGAAUGGCAAUCAUUAAAAAGUCAGGAAACAACAGGUGCUGGAGAGGAUGUG,0.333

# Block 4 — method: RNA Bind-n-Seq; molecule type: RNA; medium: in vitro; tested at: not given; reference: input RNA pool; direction: higher = stronger binding
# Target: RING finger protein unkempt homolog, zinc fingers 1-6, GST-SBP tag (UNK, Homo sapiens, UniProt Q9C0B0, residues 30-357)
# Setting: RNA with constant flanks, human-mouse chimeric sites, ends assumed
# All sequences stand within: GGGAGUUCUACAGUCCGACGAUC … CAACAGAGGAUUGAGCAUCA
# Target sequence (chain): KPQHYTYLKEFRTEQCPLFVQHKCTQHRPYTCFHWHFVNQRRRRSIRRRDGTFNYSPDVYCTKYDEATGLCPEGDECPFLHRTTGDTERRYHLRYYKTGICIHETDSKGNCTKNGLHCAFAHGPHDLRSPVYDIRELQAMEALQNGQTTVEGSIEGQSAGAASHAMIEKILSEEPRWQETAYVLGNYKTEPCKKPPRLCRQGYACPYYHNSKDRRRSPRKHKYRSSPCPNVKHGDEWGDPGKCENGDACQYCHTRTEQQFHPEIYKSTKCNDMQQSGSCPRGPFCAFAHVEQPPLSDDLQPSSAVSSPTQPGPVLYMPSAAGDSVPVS
Oligonucleotide,bound/input enrichment [ratio]
UCUUUAAAAAAAAAAUUACCUUUUCUGACAGUGCUUUCCCUCCCAUAGAUCCACGUUCAAGCUCAAAGAGCAAAGGCUCCGCAAACAGCUCAAACAUAAAAGAAAGAAAGAUUUCUGAGA,0.738
UUUCUACUGCAGCAAACGAUGCUAAGAAUUAAGGAUCCUAAGAAGUCCCUGGAUUUUUAUACGAGGGUUCUUGGACUGACGCUAAUCCAGAAGCUUGACUUCCCUGCUAUGAAGUUCUCG,0.174
AAGCAACGCAAACUUGAAACAAUUCGUUAUCUUGCAGCCUCAGUGUUUUUACUUGCCGCGAUAGCAUUGGGGUUUUAUAGGUUCUGGAAGGAGAACUGACGAUGAUGCUGCCGCUGCUGC,0.171
UUGCUACUAACUCCAUGGGUCAAGUUCCUGUGGGAAUCAUACAGGCAGUGUUUGGACCUUCUUAGAAACAAUUCUAGAGUAGAGCGCCUUUACCAUGAUAUCGCCCAACAAGCUUUCAAA,0.299
UUCAAAGAAAAGGGCAGCUGUGUCAUUUCAUAAGUAAAACUGCAUCCGGGAAAUUCUGUUCUUUUGUUUAAUUUUCCCCCAAAUGAAGCCAAAGUGUGUGUUGAAGAAGGAAGAAUGAAU,0.228
AAAGUGGACUAUGGUGAGUACAUGGAUAAAAACAAUGUGAGGCGGCAAGCAACAACAAUCAUAGCUGAUAACAUUAUAUUUCUGAGUGACCAGACAAAAGAAAAGGCAUAGAACGGAUGA,2.08
ACCAUUUUCGCGGUUCAGGCUUUGUGUGUAGUUCACUUACGGUAUUAAAUUAUUAUUCUGCUUAGCUUAUAAUAAGGAUUACAAUUGUUAAAGAGGUGAUCACUGAAUACUCUGAAACUU,0.665
GUGCCCUUCUCGCUGCUCCUGCGGGGCAGCUGGGAACCAUUCCGGGACUGGUACCCUCCGCAUAGCCGCCUCUUCGAUCAAGCUUUCGGGGUGCCCCGGUUGCCCGAUGAGUGGUCGCAG,0.055
GCAGGAUCUUCUAAGUACCAGUGGGACAUUAUGAAAUCCCUUGGGCUCUCUGAUGACGACAUAGUGAAAUUUUCUGAAGCAGAGCACUGGCUUGAUUAUUUCCCGCCACUGGCCGUUCAG,0.164
UACUCAACUUUCUUGCCACGUUUUGAAUUCCAAGACAUUAUUCCUCCAGAUGACUUCCUAACGAGUGAUGAAGAGCAAGAUUUGGUUUUAUUUGGAAGUUUGAGAGGACAAGUUGUUGGA,0.188
UUAAUCCCCUUUACUGCUCCACCACUGGUCAUGCUGAUAACAAAGUCUUAUAUCCCCGUCCUAGCUUUCACUCAGAUGGCUUAUGGAGCCGGUUUCCUAGCUUUCUUGGGAGGGAUCAGA,0.349

# Repeated from above (block 3):
Oligonucleotide,RBNS enrichment (R)
GGGGCCCUGACUCGUCACACUUCCCUUUCCUAAGCCUCUGAGGGUGGAGAUUCCCCUAGGAGCGCUUGGCCAGCUGGGAAGGCAGCGCCCAGCUGCACUUGUUGUUGAUA,0.4
CCAACUCAGCAUCUGCUUCCAGAAGUUUCCCACUUGCAGAUGUUCAGUGCAGUUACAGACAUGCGUUUGAUUCCACAGUUUUGUUUCAUUUCAAAAGAAUUCCCCUCACA,0.396
